Measured values of several laboratories.
Lines come from different studies, so protocols differ. pIC50: −log10 of the molar value.
rep main protease: Replicase polyprotein 1ab, main protease (rep, Severe acute respiratory syndrome coronavirus 2, UniProt P0DTD1)
UniProt P81425, sequence (whole entry, looked up): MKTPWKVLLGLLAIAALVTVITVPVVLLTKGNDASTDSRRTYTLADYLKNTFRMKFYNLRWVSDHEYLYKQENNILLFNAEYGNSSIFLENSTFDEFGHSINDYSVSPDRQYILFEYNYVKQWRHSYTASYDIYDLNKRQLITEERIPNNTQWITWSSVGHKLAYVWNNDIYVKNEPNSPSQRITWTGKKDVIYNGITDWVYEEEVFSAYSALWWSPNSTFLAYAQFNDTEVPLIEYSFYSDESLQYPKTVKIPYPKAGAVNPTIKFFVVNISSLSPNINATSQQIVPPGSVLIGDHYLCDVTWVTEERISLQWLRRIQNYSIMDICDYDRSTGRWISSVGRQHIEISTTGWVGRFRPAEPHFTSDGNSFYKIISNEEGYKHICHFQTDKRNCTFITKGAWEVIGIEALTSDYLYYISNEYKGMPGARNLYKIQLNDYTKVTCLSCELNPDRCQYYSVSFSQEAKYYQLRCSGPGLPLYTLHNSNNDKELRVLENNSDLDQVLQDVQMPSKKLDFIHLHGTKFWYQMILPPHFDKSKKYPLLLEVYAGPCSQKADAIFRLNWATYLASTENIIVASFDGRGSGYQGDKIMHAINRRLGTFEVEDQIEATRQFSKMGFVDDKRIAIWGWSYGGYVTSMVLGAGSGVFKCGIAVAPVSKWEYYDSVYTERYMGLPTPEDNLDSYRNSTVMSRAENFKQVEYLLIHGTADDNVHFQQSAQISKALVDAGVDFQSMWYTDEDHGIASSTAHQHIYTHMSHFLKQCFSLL

With `CN(C)C(=N)N=C(N)N` the pIC50 was 4.98 (Severe acute respiratory syndrome coronavirus 2; viral replication; Vero C1008; 48 h).
With `CC(C)C(=O)OC[C@@]1(F)O[C@@H](n2cnc(-c3c[nH]c(=O)nc3N)c2)[C@H](OC(=O)C(C)C)[C@@H]1OC(=O)C(C)C` the pIC50 was < 4.00 (Severe acute respiratory syndrome coronavirus 2; viral replication, inhibitor; A549-ACE2; 24 h).
`Cc1cnc(C(=O)N[C@H]2CCCCC/C=C\[C@@H]3C[C@@]3(C(=O)NS(=O)(=O)C3CC3)NC(=O)[C@@H]3C[C@@H](Oc4nc5ccccc5c5ccccc45)CN3C2=O)cn1` gave a pIC50 of 5.22 (Severe acute respiratory syndrome coronavirus 2; viral replication, inhibitor; Vero C1008; 48 h).
With `COC[C@H]1OC(=O)c2coc3c2[C@@]1(C)C1=C(C3=O)[C@@H]2CCC(=O)[C@@]2(C)C[C@H]1OC(C)=O` the pIC50 was 6.03 (Severe acute respiratory syndrome coronavirus 2; cytopathic effect; Vero C1008; 72 h).
For `C[C@]12C=CC(=O)C=C1CC[C@@H]1[C@@H]2[C@@H](O)C[C@@]2(C)[C@H]1C[C@H]1O[C@@H](C3CCCCC3)O[C@]12C(=O)CO`, the pIC50 was 5.07 (Severe acute respiratory syndrome coronavirus 2; viral replication, inhibitor; VeroE6/TMPRSS2; 24 h).
With `CC(C)C(=O)OC[C@@]1(F)O[C@@H](n2cnc(-c3cnc(=O)[nH]c3)c2)[C@H](OC(=O)C(C)C)[C@@H]1OC(=O)C(C)C` the pIC50 was < 4.00 (Severe acute respiratory syndrome coronavirus 2; viral replication, inhibitor; A549-ACE2; 24 h).
With `N#C[C@@H]1C[C@@H]2C[C@@H]2N1C(=O)[C@@H](N)C12CC3CC(CC(O)(C3)C1)C2` the pIC50 was 5.18 (Severe acute respiratory syndrome coronavirus 2; viral replication; Vero C1008; 48 h).
`COc1ncc(-c2cn([C@@H]3O[C@](F)(COC(=O)C(C)C)[C@@H](OC(=O)C(C)C)[C@H]3OC(=O)C(C)C)cn2)cn1` has a pIC50 of < 4.00 (Severe acute respiratory syndrome coronavirus 2; viral replication, inhibitor; A549-ACE2; 24 h).
With `Nc1ncnc2c([C@@H]3N[C@H](CO)[C@@H](O)[C@H]3O)c[nH]c12` the inhibition was 22.2% (Marburg virus; viral RNA in cell lysate; HeLa, Musoke; 0.8 µM, 1 h).
The pIC50 of `CCOc1nc(N)ncc1-c1cn([C@@H]2O[C@](F)(COC(=O)C(C)C)[C@@H](OC(=O)C(C)C)[C@H]2OC(=O)C(C)C)cn1` is reported as 4.75 (Severe acute respiratory syndrome coronavirus 2; viral replication, inhibitor; A549-ACE2; 24 h).
`O=C(O)C1=CC(=C(c2ccc(O)c(C(=O)O)c2)c2ccc(O)c(C(=O)O)c2)C=CC1=O` gave a pIC50 of 4.30 (Severe acute respiratory syndrome coronavirus 2; viral replication, inhibitor; Vero C1008; 24 h).
`Cn1cnc(Cn2c(=O)[nH]/c(=N\c3cc4cn(C)nc4cc3Cl)n(Cc3cc(F)c(F)cc3F)c2=O)n1` — result for “patients with TEAE”: 3.1% (human, moderate severity, treatment-related TEAE; oral, 375 mg).
The pIC50 of `C=C1CC[C@H]2C(=C)CC[C@H]3C(=C)C(=O)O[C@@H]3[C@@H]12` is reported as ~6.07 (Severe acute respiratory syndrome coronavirus 2; cytopathic effect; Vero C1008; 72 h).
`COc1cc2c(cc1OC)-c1c(C)c3ccc(OC)c(OC)c3c[n+]1CC2` has an inhibition of -0.264% (rep main protease; reporter gene (mKate2), inhibitor; 20 µM).
With `Cc1cccc(NC(=O)CS(=O)(=O)c2nc(-c3ccccc3)cn2-c2ccc(Cl)cc2)c1C` the pIC50 was 4.51 (Severe acute respiratory syndrome coronavirus 2; viral entry; VSVΔG pseudovirus with Omicron S).
`CC[C@H](C)[C@H](NC(=O)[C@H](CC(C)C)NC(=O)[C@H](Cc1c[nH]c2ccccc12)NC(=O)CNC(=O)[C@@H](NC(=O)[C@H](Cc1ccccc1)NC(=O)[C@H](CCC(=O)O)NC(=O)[C@H](CCCCN)NC(=O)[C@H](C)NC(=O)[C@H](C)NC(=O)[C@H](CCCCN)NC(=O)[C@H](CCC(=O)O)NC(=O)[C@H](CCC(=O)O)NC(=O)[C@H](CC(C)C)NC(=O)[C@H](Cc1ccc(O)cc1)NC(=O)[C@H](CC(N)=O)NC(=O)[C@@H](NC(=O)[C@H](CCSC)NC(=O)[C@H](CC(=O)O)NC(=O)[C@H](CC(N)=O)NC(=O)[C@@H](NC(=O)[C@H](Cc1ccccc1)NC(=O)[C@@H](NC(=O)CNC(=O)[C@H](CCC(=O)O)NC(=O)[C@H](CO)NC(=O)[C@@H](N)Cc1c[nH]cn1)[C@@H](C)O)[C@@H](C)O)[C@@H](C)O)C(C)C)C(=O)N[C@@H](CCCCN)C(=O)NCC(=O)NCC(=O)N1CCC[C@H]1C(=O)N[C@@H](CO)C(=O)N[C@@H](CO)C(=O)NCC(=O)N[C@@H](C)C(=O)N1CCC[C@H]1C(=O)N1CCC[C@H]1C(=O)N1CCC[C@H]1C(=O)N[C@@H](CO)C(=O)O` gave a remaining activity of > 50% (Dipeptidyl peptidase 4 (Bos taurus, UniProt P81425); GLP1R CRE-luciferase; 100% fetal bovine serum; 100 nM, 96 h, 37 °C; baseline: initial activity).
The pIC50 of `CCOc1nc(N)ncc1-c1cn([C@@H]2O[C@](F)(CO[P@@](=O)(N[C@@H](C)C(=O)OC(C)C)Oc3ccccc3)[C@@H](O)[C@H]2O)cn1` is reported as < 4.00 (Severe acute respiratory syndrome coronavirus 2; viral replication, inhibitor; A549-ACE2; 24 h).
With `CCC(CC)COC(=O)[C@H](C)N[P@](=O)(OC[C@H]1O[C@@](C#N)(c2ccc3c(N)ncnn23)[C@H](O)[C@@H]1O)Oc1ccccc1` the pIC50 was 7.07 (Severe acute respiratory syndrome coronavirus 2; viral replication; Vero).
`CC(C)C(=O)OCC(=O)[C@@]12O[C@H](C3CCCCC3)O[C@@H]1C[C@H]1[C@@H]3CCC4=CC(=O)C=C[C@]4(C)[C@H]3[C@@H](O)C[C@@]12C` gave a pIC50 of 5.07 (Severe acute respiratory syndrome coronavirus 2; viral replication, inhibitor; VeroE6/TMPRSS2; 24 h).
With `CNC(=O)[C@@H](NC(=O)[C@H](CC(C)C)[C@H](O)C(=O)NO)C(C)(C)C` the survival was 0% (TN population, mouse; intravenous, 60 µg/mouse, 24 h, preincubated with venom, together with: Daboia russelii venom 2.5 x LD50).
For `c1ccc(-c2ccc(-c3nc4ccccc4nc3-c3ccccc3)cc2)cc1`, the pIC50 was 3.85 (Severe acute respiratory syndrome coronavirus 2; viral entry, inhibitor; pseudovirus).
The severe hypoglycaemia of `CC[C@H](C)[C@H](NC(=O)[C@H](CC(C)C)NC(=O)[C@H](Cc1c[nH]c2ccccc12)NC(=O)[C@H](CCC(N)=O)NC(=O)[C@@H](NC(=O)[C@H](Cc1ccccc1)NC(=O)[C@H](C)NC(=O)[C@H](CCCCNC(=O)COCCOCCNC(=O)COCCOCCNC(=O)CC[C@H](NC(=O)CCCCCCCCCCCCCCCCCCC(=O)O)C(=O)O)NC(=O)[C@H](CCC(N)=O)NC(=O)[C@H](C)NC(=O)[C@@H](NC(=O)[C@H](CCCCN)NC(=O)[C@H](CC(=O)O)NC(=O)[C@H](CC(C)C)NC(=O)C(C)(C)NC(=O)[C@@H](NC(=O)[C@H](CO)NC(=O)[C@H](Cc1ccc(O)cc1)NC(=O)[C@H](CC(=O)O)NC(=O)[C@H](CO)NC(=O)[C@@H](NC(=O)[C@H](Cc1ccccc1)NC(=O)[C@@H](NC(=O)CNC(=O)[C@H](CCC(=O)O)NC(=O)C(C)(C)NC(=O)[C@@H](N)Cc1ccc(O)cc1)[C@@H](C)O)[C@@H](C)O)[C@@H](C)CC)[C@@H](C)CC)C(C)C)C(=O)N[C@@H](C)C(=O)NCC(=O)NCC(=O)N1CCC[C@H]1C(=O)N[C@@H](CO)C(=O)N[C@@H](CO)C(=O)NCC(=O)N[C@@H](C)C(=O)N1CCC[C@H]1C(=O)N1CCC[C@H]1C(=O)N1CCC[C@H]1C(=O)N[C@@H](CO)C(N)=O` is reported as 0% (healthy human; 5.0 mg, single ascending dose).
With `COC(=O)c1nc(C(F)(F)F)n2c1CN(C(=O)C[C@H](N)Cc1cc(F)c(F)cc1F)CC2.O=P(O)(O)O` the inhibition was -0.509% (rep main protease; reporter gene (mKate2), inhibitor; 20 µM).
`COc1ncc(-c2cn([C@@H]3O[C@](F)(CO[P@@](=O)(N[C@@H](C)C(=O)OC(C)C)Oc4ccccc4)[C@@H](OC(=O)C(C)C)[C@H]3OC(=O)C(C)C)cn2)cn1` has a pIC50 of 4.51 (Severe acute respiratory syndrome coronavirus 2; viral replication, inhibitor; A549-ACE2; 24 h).
The pIC50 of `CCCC[C@H](NC(=O)[C@@H]1[C@@H]2[C@H](CN1C(=O)[C@@H](NC(=O)NC1(CS(=O)(=O)C(C)(C)C)CCCCC1)C(C)(C)C)C2(C)C)C(=O)C(=O)NC1CC1` is reported as 4.82 (Severe acute respiratory syndrome coronavirus 2; viral replication, inhibitor; HEK-293T).

For quick reference, copied from above:
`COc1cc2c(cc1OC)-c1c(C)c3ccc(OC)c(OC)c3c[n+]1CC2` has an inhibition of -0.264% (rep main protease; reporter gene (mKate2), inhibitor; 20 µM).
`COc1ncc(-c2cn([C@@H]3O[C@](F)(COC(=O)C(C)C)[C@@H](OC(=O)C(C)C)[C@H]3OC(=O)C(C)C)cn2)cn1` has a pIC50 of < 4.00 (Severe acute respiratory syndrome coronavirus 2; viral replication, inhibitor; A549-ACE2; 24 h).
The pIC50 of `CCCC[C@H](NC(=O)[C@@H]1[C@@H]2[C@H](CN1C(=O)[C@@H](NC(=O)NC1(CS(=O)(=O)C(C)(C)C)CCCCC1)C(C)(C)C)C2(C)C)C(=O)C(=O)NC1CC1` is reported as 4.82 (Severe acute respiratory syndrome coronavirus 2; viral replication, inhibitor; HEK-293T).
`O=C(O)C1=CC(=C(c2ccc(O)c(C(=O)O)c2)c2ccc(O)c(C(=O)O)c2)C=CC1=O` gave a pIC50 of 4.30 (Severe acute respiratory syndrome coronavirus 2; viral replication, inhibitor; Vero C1008; 24 h).
